# Published values pooled from the literature.
# Each numbered part is a random draw from the data of one study; scales do not carry over between parts. Substitutions count along the parent as printed.
# Sequence of UniProt P35968 (whole entry, looked up): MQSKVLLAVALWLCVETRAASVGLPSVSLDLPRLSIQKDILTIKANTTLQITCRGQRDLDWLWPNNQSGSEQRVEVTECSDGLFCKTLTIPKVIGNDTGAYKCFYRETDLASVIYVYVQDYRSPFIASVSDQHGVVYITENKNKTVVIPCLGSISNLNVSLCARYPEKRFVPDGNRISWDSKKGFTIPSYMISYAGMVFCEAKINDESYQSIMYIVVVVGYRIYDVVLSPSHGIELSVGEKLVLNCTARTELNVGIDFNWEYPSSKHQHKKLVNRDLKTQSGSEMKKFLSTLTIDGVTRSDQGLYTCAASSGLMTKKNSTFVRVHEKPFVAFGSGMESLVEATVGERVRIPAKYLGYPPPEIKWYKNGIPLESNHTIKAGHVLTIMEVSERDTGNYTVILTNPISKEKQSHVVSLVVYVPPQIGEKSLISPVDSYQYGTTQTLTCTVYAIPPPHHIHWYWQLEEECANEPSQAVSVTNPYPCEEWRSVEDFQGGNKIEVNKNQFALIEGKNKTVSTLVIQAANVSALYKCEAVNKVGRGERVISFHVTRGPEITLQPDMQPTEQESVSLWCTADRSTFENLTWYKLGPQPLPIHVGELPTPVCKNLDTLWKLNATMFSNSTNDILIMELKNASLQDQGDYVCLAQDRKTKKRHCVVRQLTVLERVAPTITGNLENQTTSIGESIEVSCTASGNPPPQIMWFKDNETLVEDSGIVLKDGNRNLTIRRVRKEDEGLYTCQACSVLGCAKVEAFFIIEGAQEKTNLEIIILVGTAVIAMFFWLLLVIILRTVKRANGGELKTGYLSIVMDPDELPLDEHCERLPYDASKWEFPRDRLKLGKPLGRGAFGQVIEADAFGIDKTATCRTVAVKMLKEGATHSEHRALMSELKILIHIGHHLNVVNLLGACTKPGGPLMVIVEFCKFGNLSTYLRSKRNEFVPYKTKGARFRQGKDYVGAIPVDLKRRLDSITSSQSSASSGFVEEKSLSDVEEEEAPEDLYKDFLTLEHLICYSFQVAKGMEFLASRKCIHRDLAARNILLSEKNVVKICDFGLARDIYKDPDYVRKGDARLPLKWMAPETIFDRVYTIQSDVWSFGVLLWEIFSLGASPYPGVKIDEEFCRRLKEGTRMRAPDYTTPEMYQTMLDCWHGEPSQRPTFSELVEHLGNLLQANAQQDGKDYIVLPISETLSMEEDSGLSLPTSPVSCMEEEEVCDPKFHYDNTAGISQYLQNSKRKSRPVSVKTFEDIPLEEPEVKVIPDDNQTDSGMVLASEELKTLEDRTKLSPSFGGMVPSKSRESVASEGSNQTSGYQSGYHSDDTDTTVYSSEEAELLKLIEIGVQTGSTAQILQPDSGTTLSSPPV
# Sequence of UniProt O14757 (whole entry, looked up): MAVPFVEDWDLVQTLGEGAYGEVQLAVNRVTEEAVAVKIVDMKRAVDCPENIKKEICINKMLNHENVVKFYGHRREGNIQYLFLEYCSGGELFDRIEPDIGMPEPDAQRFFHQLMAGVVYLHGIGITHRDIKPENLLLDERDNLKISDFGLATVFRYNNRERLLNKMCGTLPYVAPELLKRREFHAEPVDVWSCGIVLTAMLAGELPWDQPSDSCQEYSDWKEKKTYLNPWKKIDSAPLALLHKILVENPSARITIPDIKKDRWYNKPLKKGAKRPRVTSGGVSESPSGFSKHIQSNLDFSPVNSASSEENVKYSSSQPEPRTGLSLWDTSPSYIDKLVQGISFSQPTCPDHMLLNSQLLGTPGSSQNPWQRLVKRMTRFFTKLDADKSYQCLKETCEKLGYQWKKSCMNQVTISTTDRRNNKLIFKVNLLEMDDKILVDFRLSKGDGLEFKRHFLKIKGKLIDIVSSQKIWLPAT

# Sample 1
# Target: BATF3, bZIP domain (human)
# Technique: DHFR protein complementation
# Matrix: yeast
# Notes: single substitutions, most at no-binding floor
# Reference: wild-type JUN-FOS pair
# Direction: higher = stronger binding
# Starting sequence: JUN, bZIP domain (human); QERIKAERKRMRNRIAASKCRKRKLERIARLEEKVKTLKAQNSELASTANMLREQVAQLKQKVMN; partner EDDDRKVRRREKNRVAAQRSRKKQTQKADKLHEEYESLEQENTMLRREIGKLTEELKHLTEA
Variant,binding fitness [natural log]
Q41A,0.177
L31Q,0.128
V35K,0.0339
Q58P,-0.0799
T37C,0.248
E33A,0.21
E44I,0.111
T48K,0.21

# Sample 2
# Target: Protein C-ets-1 (ETS1, Homo sapiens, UniProt P14921, residues 1-441, full length assumed)
# Technique: protein-binding microarray
# Form: double-stranded DNA, one strand shown
# Matrix: in vitro
# Tested at: not given
# Notes: k-mer, scored over probes, only values ≥0.25
# Direction: higher = stronger binding
# Target sequence (chain): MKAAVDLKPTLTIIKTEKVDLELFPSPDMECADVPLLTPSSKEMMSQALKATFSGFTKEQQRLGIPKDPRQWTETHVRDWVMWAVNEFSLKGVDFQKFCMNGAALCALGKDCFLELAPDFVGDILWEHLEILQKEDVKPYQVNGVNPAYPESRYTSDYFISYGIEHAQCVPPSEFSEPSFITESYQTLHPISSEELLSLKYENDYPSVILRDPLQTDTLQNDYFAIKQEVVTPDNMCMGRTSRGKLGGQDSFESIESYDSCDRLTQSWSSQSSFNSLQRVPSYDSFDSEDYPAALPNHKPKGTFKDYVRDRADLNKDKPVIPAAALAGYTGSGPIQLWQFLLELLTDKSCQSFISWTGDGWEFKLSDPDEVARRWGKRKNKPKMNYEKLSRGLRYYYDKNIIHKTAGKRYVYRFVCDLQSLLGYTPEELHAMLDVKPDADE
Sequence,E-score
CCGGGGGA,0.37
CAGTTTCC,0.429
CCGGGATC,0.292
TCAGCGGA,0.374
GCGGACGA,0.342
ACCGGATA,0.486
ACATCCGT,0.467
CGTCCGAC,0.263

# Single results of other studies
SMILES,target or system,read-out,technique,matrix,tested at,endpoint,result
CN(C)C(=O)Cn1cc(-c2nc([C@@](C)(c3ccc(-c4cnc(N)nc4)cc3)C3CC3)no2)cn1,"Vascular endothelial growth factor receptor 2 (KDR, Homo sapiens, UniProt P35968)",cell-free assay,competition with immobilised ligand,,1 µM,remaining binding,87%
CCC[C@H]1NC(=O)CSC[C@@H](C(=O)OCC)N(C)C(=O)[C@H](CC(C)C)NC(=O)[C@H](C)N(C)C(=O)[C@H](CC(C)C)NC(=O)[C@H](C)N(C)C(=O)[C@H]2CCCN2C(=O)[C@@H](CC(C)C)NC(=O)CN(CCC)C1=O,,,,hydrocarbon/water,,logD,1.01
CCCOc1ccc([C@@H]2[C@@H](C(=O)O)[C@H](c3ccc4c(c3)OCO4)CN2CC(=O)Nc2c(CC)cccc2CC)cc1,"Serine/threonine-protein kinase Chk1 (CHEK1, Homo sapiens, UniProt O14757)",cell-free assay,competition with immobilised ligand,,1 µM,remaining binding,86%

# For quick reference, copied from above (sample 1):
Variant,binding fitness [natural log]
E44I,0.111
Q41A,0.177
T37C,0.248
